Published values collected from several papers.
Parts stem from different laboratories: compare values within a part only.

Study 1
Target: Interferon regulatory factor 7, full length, phosphomimetic (IRF7, Homo sapiens, UniProt Q92985, residues 1-503, S101K/S471D/S472D/S475D/S476D/S477D/S483D/S484D/S487D)
UniProt Q92985, sequence (whole entry, unmodified, looked up): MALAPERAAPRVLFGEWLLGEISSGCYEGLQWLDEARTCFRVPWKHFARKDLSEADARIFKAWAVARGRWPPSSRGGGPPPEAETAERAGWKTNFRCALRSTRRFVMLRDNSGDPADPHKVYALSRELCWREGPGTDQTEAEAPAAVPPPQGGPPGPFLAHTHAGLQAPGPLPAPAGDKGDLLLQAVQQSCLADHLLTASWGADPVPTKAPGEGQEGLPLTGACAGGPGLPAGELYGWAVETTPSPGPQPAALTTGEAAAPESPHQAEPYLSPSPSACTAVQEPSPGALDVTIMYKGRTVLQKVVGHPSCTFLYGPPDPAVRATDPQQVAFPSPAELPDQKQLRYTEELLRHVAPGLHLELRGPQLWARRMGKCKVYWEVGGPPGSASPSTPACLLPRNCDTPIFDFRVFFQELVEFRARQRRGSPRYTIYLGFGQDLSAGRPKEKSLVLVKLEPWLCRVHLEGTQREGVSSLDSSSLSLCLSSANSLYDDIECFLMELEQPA
Technique: protein-binding microarray
Form: double-stranded DNA, one strand shown
Sample: in vitro
Tested at: 250 nM
Setting: 60-bp whole probe
With: salmon DNA 0.4 mg/ml
Reference: random background probes
Direction: higher = stronger binding
Shared flanks, not repeated: GCCTAGCAC … GTCTTGATTCGCTTGACGCTGCTG
Strand | log fluorescence [z-score]
TTAGATTTCCTTTTCCTTTAGTGCTAG | 2.45
CCAATTCTCTTTTCACTTTCGTGCTAG | 2.66
TTAGGTCTCGGTTCCGGTTAGTGCTAG | 5.45
TTAGATTTCACTTCCGATTAGTGCTAG | 1.4
TTAGATATCGGCTTTCGATTAGTGCTA | 0.662
TCAGTTCTTATCCTTCCCACTGTGCTA | 0.925
CTTTTTTTCTTTTATTAGTGGTGCTAG | 2.82
TTCTGAATGCCCTCTAACTTCGTGCTA | -0.351
GACTATATCGGGTATCGAGACGTGCTA | 0.139
AAATTCTGATATAATTCAAAGTGCTAG | 0.13
GACGATTTCAGGACTGGAGACGTGCTA | -0.142
TCAAACATCATTGTCATACTGTGCTAG | -0.36
TCAGATCTCAGACTGTGACTGTGCTAG | -0.145
TTAGGTCACGGTATCGGTTAGTGCTAG | 1.96
AACTGCTGCCGTCCACCACTGTGCTAG | -0.5
GATAATTTATAAATAAAAAAGTGCTAG | 0.0498
TACGGTTCCCTTTTCCTGACGTGCTAG | 3.26
TATAATATATATATTGTTAGGTGCTAG | 0.599
TTAGAACTGGGTTTCGATTAGTGCTAG | 7.46

Study 2
Target: Histone acetyltransferase KAT6A, winged helix 2, GST fusion (KAT6A, Homo sapiens, UniProt Q92794, residues 85-181)
Technique: protein binding microarray
Form: double-stranded DNA, one strand shown
Sample: in vitro
Tested at: not given
Setting: 8-mer, flanks averaged, mean of 2 arrays, mostly near background
Reference: not given
Direction: higher = stronger binding
Target sequence (chain): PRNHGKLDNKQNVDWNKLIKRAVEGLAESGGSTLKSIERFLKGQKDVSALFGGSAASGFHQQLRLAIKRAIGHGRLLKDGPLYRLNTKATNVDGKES
Strand | E-score
GAGAGCAC | 0.13
ATCGGACA | -0.0338
GCCGACAA | 0.111
AGGCAAGA | 0.00611
TATCTTAA | 0.11
CCGCATTA | -0.0277
AGTGATGG | -0.0662
ACGGCAGC | 0.0959
AAACCTCT | -0.0234
CCCAGCAC | -0.0374
ACAAACAT | -0.0578
CCCTCAGA | -0.022
GATGGGAA | -0.106
AAAGCTCC | 0.0484
CACTCTTC | -0.119
ATACTTAC | 0.0121
GCCACCAA | -0.0188
CCACATGC | -0.0357
AAGGGTCG | 0.0535
CGGCGAAA | 0.196
AATTAGGG | -0.188
CGAATTTA | 0.138
GATCGGTA | 0.0404
GCACAGCC | 0.118
AACATGGA | 0.0322

Study 3
Target: RING finger protein unkempt homolog, zinc fingers 1-6, GST-SBP tag (UNK, Homo sapiens, UniProt Q9C0B0, residues 30-357)
Technique: RNA Bind-n-Seq
Form: RNA
Sample: in vitro
Tested at: not given
Setting: RNA with constant flanks, human and mouse sites, ends assumed
Reference: input RNA pool
Direction: higher = stronger binding
Shared flanks, not repeated: GGGAGUUCUACAGUCCGACGAUC … CAACAGAGGAUUGAGCAUCA
Residues (chain): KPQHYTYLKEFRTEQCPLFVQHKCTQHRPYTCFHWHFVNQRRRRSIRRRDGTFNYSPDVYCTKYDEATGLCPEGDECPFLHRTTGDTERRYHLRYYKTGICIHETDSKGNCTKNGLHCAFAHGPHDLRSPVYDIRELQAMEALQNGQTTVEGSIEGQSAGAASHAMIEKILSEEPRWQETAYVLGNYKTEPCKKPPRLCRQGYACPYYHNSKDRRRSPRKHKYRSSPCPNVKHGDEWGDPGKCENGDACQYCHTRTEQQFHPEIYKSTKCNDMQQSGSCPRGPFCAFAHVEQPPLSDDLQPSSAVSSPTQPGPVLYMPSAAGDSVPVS
Strand | bound/input enrichment [ratio]
CAGAUGGUCACCAGCUCUCAGAGCUGCACACAGCUGCUCUAGGGGAAAUGACCCAGAGCUUAGCUCACUGUAGAGGAAUGUCCUUGGCGGAAUAGGAGAUAAGAGAAAACUCCAAUCUGA | 0.0938
CAGAGCUGGACAGACUUUUCAAGGCUCCAUCUUUCUAAUAAACUGGCCAUUUUUGGAAUUGGUUAUAACACCCGUUGGAAAGAGGAUAUCCGUUACCAUUAUGCUGAGAUCAGCUCCCAG | 0.0965
GGUGCUUAUAAUUAUCCUUUCACUUGGAAUACACCAUCUGCUCCCCCUGGCUAUAACAUUGCUGUCAAACCAGAUCAAAUCCAGUACACCGAACUGUCCAAUGCUAAGAUCGCCUACAAG | 0.25
AGGACCAAAGAUGCCUCAACUUGGAUCCAGGUCCCUCUUGAAGAUACAAUGUCUCCUCGAACUUCCUUCACUGUGCAGGACCUCAAGCCUUUUACAGAAUAUGUGUUUAGGAUCCGGUCC | 0.0788
GAAGAAACCUUAUCCAGCCGAAGAAGGGAACUAAUUCAGAAGUUGAAGUCUUUCAUCAGCUUCUAUAGUGCUUUGCCUGGCUACAUCUGCAGCCAUAGCCCUGUGGCGGAAAACGACACC | 0.253
UUCUUUUCUUUUCUUUUCUUUUCUUUUCUUUUCUUUUCUUUUCUUUUUUCUUUUUUUUUUUUUAGGCAGUGUGUUGCUAAACAGCCCUGGCUGGCCUGGGACUUGCUAUGUAGACCAGGC | 32.7
GACUCUUUUGGAACACAGUUACCACCGAUGCAUCAGCAGCAAAGAUCUGUAAUGACAGAAGAAUACAAAGUUCCAGAUGGAAUGGUUGGAUUCAUAAUUGGCAGAGGAGGUGAACAGAUC | 0.205
CCAUUCUCUUAGUGAUGGGUUGGAUGAAGUCCAAAAAGCAGAAAUGAAAGCCUACAUGGAAUUAGUCAACAAUAUGCUGCUGACUGCAGAGGUAUAAGAGGAUAAGGCUUGAGAUCAGAC | 0.287

Study 4
Target: Sal-like protein 4, full length isoform A (SALL4, Homo sapiens, UniProt Q9UJQ4, residues 1-1053)
UniProt Q9UJQ4, sequence (whole entry, looked up): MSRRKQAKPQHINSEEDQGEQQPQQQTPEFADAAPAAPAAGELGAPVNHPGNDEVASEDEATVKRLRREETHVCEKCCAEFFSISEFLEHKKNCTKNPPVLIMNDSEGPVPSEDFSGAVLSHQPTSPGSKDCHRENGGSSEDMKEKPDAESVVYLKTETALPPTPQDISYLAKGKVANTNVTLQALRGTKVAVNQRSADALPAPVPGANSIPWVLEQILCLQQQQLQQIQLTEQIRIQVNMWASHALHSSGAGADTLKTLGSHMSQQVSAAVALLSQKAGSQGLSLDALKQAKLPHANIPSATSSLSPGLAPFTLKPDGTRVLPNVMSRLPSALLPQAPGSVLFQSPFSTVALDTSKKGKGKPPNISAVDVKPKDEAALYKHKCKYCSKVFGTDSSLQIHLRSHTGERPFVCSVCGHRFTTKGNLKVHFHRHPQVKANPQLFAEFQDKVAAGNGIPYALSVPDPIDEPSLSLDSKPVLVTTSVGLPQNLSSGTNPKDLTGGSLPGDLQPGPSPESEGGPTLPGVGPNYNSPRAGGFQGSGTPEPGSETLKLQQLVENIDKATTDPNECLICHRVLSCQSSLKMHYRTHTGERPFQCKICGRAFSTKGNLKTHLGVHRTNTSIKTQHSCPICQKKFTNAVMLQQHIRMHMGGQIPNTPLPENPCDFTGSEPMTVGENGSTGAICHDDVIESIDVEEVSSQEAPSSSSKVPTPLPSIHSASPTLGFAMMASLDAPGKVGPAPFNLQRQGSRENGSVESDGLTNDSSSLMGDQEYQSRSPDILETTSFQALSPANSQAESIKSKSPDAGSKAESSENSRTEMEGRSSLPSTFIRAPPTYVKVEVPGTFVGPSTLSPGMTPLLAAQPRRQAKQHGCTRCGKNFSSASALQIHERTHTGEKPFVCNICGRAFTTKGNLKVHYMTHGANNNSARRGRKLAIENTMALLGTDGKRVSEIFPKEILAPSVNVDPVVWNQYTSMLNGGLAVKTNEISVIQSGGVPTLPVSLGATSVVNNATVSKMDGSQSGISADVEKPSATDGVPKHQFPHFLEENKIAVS
Technique: universal PBM
Form: double-stranded DNA, one strand shown
Sample: in vitro
Tested at: 600 nM
Setting: 8-mer, flanks averaged, mean of replicates
Direction: higher = stronger binding
Strand | E-score
AGAAAGAG | -0.0858
CCACTAAG | -0.192
ACGCCACC | -0.312
GAATTCGC | -0.166
AATATTAG | 0.426
AGGAACAC | -0.00386
GCTTGTCA | 0.041
AGTAACCA | -0.0213
GAGTTGGA | -0.0329
CCGGTATA | -0.00196
ATCCTGTA | 0.196
AGGGGTGG | -0.276
GTCGTCTA | -0.156
AATGCCGC | -0.187
AGAGTGCA | 0.00713
AATAGCGC | 0.0798
ATGCCACA | 0.0782
CTAAACTA | 0.115
CTAATTGC | 0.102
GCAGGCAA | -0.0475
GTCTAACA | 0.0526
GGTATAAA | 0.226
GAGCTTAC | -0.0927
GACTCGTA | -0.0374
CGATGAGC | -0.242

Some of these lines once more (study 1):
Strand | log fluorescence [z-score]
TCAGATCTCAGACTGTGACTGTGCTAG | -0.145
TTAGATTTCCTTTTCCTTTAGTGCTAG | 2.45
CCAATTCTCTTTTCACTTTCGTGCTAG | 2.66
AACTGCTGCCGTCCACCACTGTGCTAG | -0.5
